Measurements pooled from the literature.
Protocols differ between the studies behind these lines. Numbers after ± are the reported error.

Compound	target or system	assay	test system	conditions	endpoint	value
CC(=O)NCCCCCC(=O)N[C@@H](CCCNC(=N)N)C(=O)N[C@@H](Cc1c[nH]c2ccccc12)C(=O)N[C@@H](CCC(N)=O)C(=O)N[C@@H](Cc1c[nH]c2ccccc12)C(=O)N[C@@H](CCCNC(=N)N)C(=O)N[C@@H](Cc1c[nH]c2ccccc12)C(=O)N[C@@H](CCC(N)=O)C(=O)N[C@@H](Cc1c[nH]c2ccccc12)C(=O)N[C@@H](CCCNC(=N)N)C(N)=O	Caco-2	cell growth or viability, MTT	–	–	IC50	31 µM
CCn1cnc2c(Nc3cccc(Cl)c3)nc(N[C@@H]3CCCC[C@@H]3N)nc21	HeLa expressing Ub(G76V)-GFP	Ub(G76V)-GFP degradation, inhibitor, cycloheximide chase	–	–	IC50	7 ± 1 µM
CCOC(=O)C[C@H](O)COC(=O)/C=C/CCl	RAW264.7	NO release, inhibitor	–	LPS-stimulated	IC50	4.5 µM
COc1ccc(C[C@H]2NC(=O)/C=C/C[C@@H]([C@H](C)[C@@H](OC(=O)CNC(=O)OCc3ccc(NC(=O)[C@H](C)NC(=O)[C@@H](NC(=O)CCc4cn(CCOCCOCCOCCOCC(=O)NCc5ccc(CN6C(=O)[C@H]7CC(=O)N[C@@H](CCCNC(=N)N)C(=O)NCC(=O)N[C@@H](CC(=O)O)C(=O)NC[C@H]6C(=O)N7)cc5)nn4)C(C)C)cc3)[C@@H](Cl)c3ccccc3)OC(=O)[C@H](CC(C)C)OC(=O)C(C)(C)CNC2=O)cc1Cl	M21-L human melanoma (integrin αv-negative)	cell viability, MTT	–	2 h treatment plus 70 h	IC50	0.0223 ± 0.002 µM
Nc1nc(Cl)c(-c2ccccc2)c(Cl)n1	mouse peritoneal cells	nitric oxide production, Griess	–	24 h, added: LPS plus IFN-gamma	IC50	24.2 µM
CC(C)=CCOc1c2occc2cc2ccc(=O)oc12	COLO 320 multidrug-resistant	cell growth, MTT	–	72 h	IC50	40.5 ± 1.22 µM
Nc1nc(Cl)c(F)c(Cl)n1	mouse peritoneal cells	nitric oxide production, item: nitrite	–	24 h, added: LPS plus IFN-gamma	IC50	2 µM
COC(=O)CNC(=O)C[C@@H]1N=C(c2ccc(Cl)cc2)c2c(sc(C)c2C)-n2c(C)nnc21	acute leukaemia and medulloblastoma lines	cell growth	–	72 h	IC50	0.0099 to 0.359 µM
COc1ccc(C[C@H]2NC(=O)/C=C/C[C@@H]([C@H](C)[C@@H](OC(=O)CNC(=O)CCc3cn(CCOCCOCCOCCOCC(=O)NCc4ccc(CN5C(=O)[C@H]6CC(=O)N[C@H](C(=O)O)CC(=O)NCC(=O)N[C@@H](CCCNC(=N)N)C(=O)NC[C@H]5C(=O)N6)cc4)nn3)[C@@H](Cl)c3ccccc3)OC(=O)[C@H](CC(C)C)OC(=O)C(C)(C)CNC2=O)cc1Cl	M21 human melanoma (integrin αvβ3-positive)	cell viability, MTT	–	2 h treatment plus 70 h	IC50	0.288 ± 0.0359 µM
O=C(NC(=O)c1cc2c(F)cc(F)cc2[nH]1)c1cccc(F)c1	KNS-42	cell growth or viability, resazurin	–	72 h	IC50	2.16 µM
COc1cc2nccc(Oc3ccc(NC(=O)NC4CC4)c(Cl)c3)c2cc1C(N)=O	MHCC97H	cell growth or viability, MTT	–	48 h	IC50	0.7 µM
O=C(c1cc2c(F)cc(F)cc2[nH]1)N1CCNCC1	KNS-42	cell growth or viability, resazurin	–	72 h	IC50	1.34 µM
C[C@H]1[C@H](OC(=O)CCC(=O)Oc2ccc(CCO)cc2)O[C@@H]2O[C@@]3(C)CC[C@H]4[C@H](C)CC[C@@H]1[C@@]24OO3	SK-MEL3	cell viability, MTT	–	24 h, added: deferoxamine 20 µM, 1 h before	IC50	24.5 ± 1.3 µM
N.N.[Cl][Pt][Cl]	CCD-18Co colon fibroblasts	cell viability, MTS	–	72 h	IC50	64.1 ± 1.6 µM
CC[C@H](C)[C@@H]1NC(=O)[C@H](CCC(=O)O)NC(=O)[C@H](C)NC(=O)[C@H](CC(C)C)NC(=O)[C@H](CC(C)C)NC(=O)[C@H](C)NC(=O)C2(CCCC=CCCCCCC[C@@](C)(C(=O)N[C@@H](C)C(=O)N[C@@H](CC(N)=O)C(=O)N[C@@H](CC(C)C)C(=O)N[C@@H](CO)C(N)=O)NC1=O)CCCC=CCCC[C@](C)(NC(=O)[C@H](CC(N)=O)NC(=O)[C@H](CCC(=O)O)NC(=O)[C@@H]1CCCN1C(=O)[C@@H](N)CC(N)=O)C(=O)N[C@@H]([C@@H](C)CC)C(=O)N[C@@H](C)C(=O)N[C@@H](CCCCN)C(=O)N2 (some centres unmarked)	HCT-116 expressing NanoLuc-HaloTag	intracellular peptide delivery, NanoBRET	–	24 h, 37 °C, 1% DMSO	IC50	0.093 µM
CC(C)c1ccc2c(c1)CC[C@H]1[C@](C)(CN)CCC[C@]21C	MEL-JUSO	cell growth or viability, MTS	–	48 h	IC50	4.61 µM
CC(C)C[C@@H]1NC(=O)[C@@H]2CSSC[C@@H](C(=O)NCC(=O)O)NC(=O)[C@H](Cc3ccccc3)NC(=O)CNC(=O)[C@H](CC(N)=O)NC(=O)[C@@H]3CCCN3C(=O)CNC(=O)[C@@H]3CSSC[C@H](NC(=O)[C@H](CO)NC(=O)[C@H]([C@@H](C)O)NC(=O)[C@@H]4CCCN4C(=O)[C@H](C)NC(=O)[C@H](Cc4c[nH]c5ccccc45)NC(=O)[C@H](CC(=O)O)NC(=O)CNC(=O)[C@H](CCCNC(=N)N)NC(=O)CNC(=O)[C@H](CCC(N)=O)NC(=O)[C@@H]4CCCN4C(=O)[C@@H](NC(=O)CN)CSSC[C@H](NC(=O)CNC(=O)[C@H](C)NC1=O)C(=O)N[C@@H](C(C)C)C(=O)N3)C(=O)N[C@@H](CO)C(=O)N[C@@H](CCC(N)=O)C(=O)N[C@@H](CC(=O)O)C(=O)N[C@@H](CO)C(=O)N[C@@H](CC(=O)O)C(=O)N2	U-87 MG	cell adhesion to vitronectin	–	2 h, 37 °C	IC50	0.01 ± 0.002 µM
CO[C@H]1/C=C\C=C(/C)C(=O)NC2=CC(=O)C(NCCN(C)C)=C(C[C@@H](C)C[C@H](OC)[C@H](O)[C@@H](C)/C=C(\C)[C@@H]1OC(N)=O)C2=O	H3255 (EGFR L858R)	cell viability, Alamar Blue	–	120 h	IC50	0.021 ± 0.01 µM
O=C1[O][Pt]2([NH][C@@H]3CCCC[C@H]3[NH]2)[O]C1=O	LoVo OXP cells (resistant to compound)	cell viability, MTT	–	72 h	IC50	14.3 ± 2.1 µM
O=P12CN3CN(CN(C3)C1)C2	DU-145	cell growth or viability, MTT	–	24 h	IC50	> 500 µM
Cc1ccc(C(C)C)cc1.[Cl][Ru]([Cl])[PH]12CN3CN(CN(C3)C1)C2	A2780cisR	cell growth or viability, MTT	–	72 h, drug-resistant strain	IC50	> 200 µM
N#C/C(=C/c1ccc(O)c(O)c1)C(=O)NCc1ccccc1	Ba/F3 JAK2 V617F	kinase activity	immunoprecipitated full-length JAK2	added: IL-3	IC50	145 µM
COc1ccc(C[C@H]2NC(=O)/C=C/C[C@@H]([C@H](C)[C@@H](OC(=O)CNC(=O)OCc3cc(NC(=O)CCCc4cn(CCC(=O)NCCCC[C@@H]5NC(=O)[C@@H](Cc6ccccc6)NC(=O)[C@H](CC(=O)O)NC(=O)CNC(=O)[C@H](CCCNC(=N)N)NC5=O)nn4)cc(O[C@@H]4O[C@H](C(=O)O)[C@@H](O)[C@H](O)[C@H]4O)c3)[C@@H](Cl)c3ccccc3)OC(=O)[C@H](CC(C)C)OC(=O)C(C)(C)CNC2=O)cc1Cl	M21	cytotoxicity, resazurin	–	2 h plus 70 h incubation, without β-glucuronidase	IC50	0.303 ± 0.0269 µM
CN[C@@](C)(C[18F])C(=O)O	DU-145 tumour model	–	host not given, tumour	2 h, tumour-bearing	tracer uptake	4 %ID/g
N.N.[Cl][Pt][Cl]	NCM460	cell growth or viability, CCK-8	–	–	IC50	4.8 µM
Nc1cccc2c(N)cccc12	HepG2	mitochondrial membrane potential, fluorescence plate reader	–	5 h	IC50	inactive
Cc1n[nH]c(C)c1Cc1sc2c(c1C(=O)N1C[C@H](O)CO1)c(=O)n(C)c(=O)n2CC(C)C	KNRK cells	GHB uptake	–	1 min, pH 6.5, added: [3H]GHB 10 µM	IC50	0.0068 µM
COc1ccc(NC(=O)Cn2cnc3ccccc3c2=O)c(N)c1	MDA-MB-231	cell growth or viability, crystal violet	–	48 h	IC50	> 100 µM
CC(C(O)c1ccc(O)cc1)N1CCC(Cc2ccccc2)CC1 (centres unmarked)	HEK293 expressing MOR	cAMP overshoot, inhibitor, HTRF cAMP	–	added: morphine then naloxone	IC50	8.2 µM

Some of these lines once more:
Compound	target or system	assay	test system	conditions	endpoint	value
COc1ccc(C[C@H]2NC(=O)/C=C/C[C@@H]([C@H](C)[C@@H](OC(=O)CNC(=O)OCc3cc(NC(=O)CCCc4cn(CCC(=O)NCCCC[C@@H]5NC(=O)[C@@H](Cc6ccccc6)NC(=O)[C@H](CC(=O)O)NC(=O)CNC(=O)[C@H](CCCNC(=N)N)NC5=O)nn4)cc(O[C@@H]4O[C@H](C(=O)O)[C@@H](O)[C@H](O)[C@H]4O)c3)[C@@H](Cl)c3ccccc3)OC(=O)[C@H](CC(C)C)OC(=O)C(C)(C)CNC2=O)cc1Cl	M21	cytotoxicity, resazurin	–	2 h plus 70 h incubation, without β-glucuronidase	IC50	0.303 ± 0.0269 µM
CC(C)=CCOc1c2occc2cc2ccc(=O)oc12	COLO 320 multidrug-resistant	cell growth, MTT	–	72 h	IC50	40.5 ± 1.22 µM
CC(C)C[C@@H]1NC(=O)[C@@H]2CSSC[C@@H](C(=O)NCC(=O)O)NC(=O)[C@H](Cc3ccccc3)NC(=O)CNC(=O)[C@H](CC(N)=O)NC(=O)[C@@H]3CCCN3C(=O)CNC(=O)[C@@H]3CSSC[C@H](NC(=O)[C@H](CO)NC(=O)[C@H]([C@@H](C)O)NC(=O)[C@@H]4CCCN4C(=O)[C@H](C)NC(=O)[C@H](Cc4c[nH]c5ccccc45)NC(=O)[C@H](CC(=O)O)NC(=O)CNC(=O)[C@H](CCCNC(=N)N)NC(=O)CNC(=O)[C@H](CCC(N)=O)NC(=O)[C@@H]4CCCN4C(=O)[C@@H](NC(=O)CN)CSSC[C@H](NC(=O)CNC(=O)[C@H](C)NC1=O)C(=O)N[C@@H](C(C)C)C(=O)N3)C(=O)N[C@@H](CO)C(=O)N[C@@H](CCC(N)=O)C(=O)N[C@@H](CC(=O)O)C(=O)N[C@@H](CO)C(=O)N[C@@H](CC(=O)O)C(=O)N2	U-87 MG	cell adhesion to vitronectin	–	2 h, 37 °C	IC50	0.01 ± 0.002 µM
CC[C@H](C)[C@@H]1NC(=O)[C@H](CCC(=O)O)NC(=O)[C@H](C)NC(=O)[C@H](CC(C)C)NC(=O)[C@H](CC(C)C)NC(=O)[C@H](C)NC(=O)C2(CCCC=CCCCCCC[C@@](C)(C(=O)N[C@@H](C)C(=O)N[C@@H](CC(N)=O)C(=O)N[C@@H](CC(C)C)C(=O)N[C@@H](CO)C(N)=O)NC1=O)CCCC=CCCC[C@](C)(NC(=O)[C@H](CC(N)=O)NC(=O)[C@H](CCC(=O)O)NC(=O)[C@@H]1CCCN1C(=O)[C@@H](N)CC(N)=O)C(=O)N[C@@H]([C@@H](C)CC)C(=O)N[C@@H](C)C(=O)N[C@@H](CCCCN)C(=O)N2 (some centres unmarked)	HCT-116 expressing NanoLuc-HaloTag	intracellular peptide delivery, NanoBRET	–	24 h, 37 °C, 1% DMSO	IC50	0.093 µM
